# Results from different studies.
# “And” joins repeats or separate records; there may be more than shown. ± gives the spread as reported.
Structure (SMILES),test,test system,setting,scale,measurement,result
CCCCCCCC[N+](C)(C)C,ultrafiltration,human serum,,,unbound fraction in blood,0.284
CC[C@H](C)[C@H](NC(=O)[C@H](CC(C)C)NC(=O)[C@H](Cc1c[nH]c2ccccc12)NC(=O)[C@H](CCC(N)=O)NC(=O)[C@@H](NC(=O)[C@H](Cc1ccccc1)NC(=O)[C@H](C)NC(=O)[C@H](CCCCNC(=O)COCCOCCNC(=O)COCCOCCNC(=O)CC[C@H](NC(=O)CCCCCCCCCCCCCCCCCCC(=O)O)C(=O)O)NC(=O)[C@H](CCC(N)=O)NC(=O)[C@H](C)NC(=O)[C@@H](NC(=O)[C@H](CCCCN)NC(=O)[C@H](CC(=O)O)NC(=O)[C@H](CC(C)C)NC(=O)C(C)(C)NC(=O)[C@@H](NC(=O)[C@H](CO)NC(=O)[C@H](Cc1ccc(O)cc1)NC(=O)[C@H](CC(=O)O)NC(=O)[C@H](CO)NC(=O)[C@@H](NC(=O)[C@H](Cc1ccccc1)NC(=O)[C@@H](NC(=O)CNC(=O)[C@H](CCC(=O)O)NC(=O)C(C)(C)NC(=O)[C@@H](N)Cc1ccc(O)cc1)[C@@H](C)O)[C@@H](C)O)[C@@H](C)CC)[C@@H](C)CC)C(C)C)C(=O)N[C@@H](C)C(=O)NCC(=O)NCC(=O)N1CCC[C@H]1C(=O)N[C@@H](CO)C(=O)N[C@@H](CO)C(=O)NCC(=O)N[C@@H](C)C(=O)N1CCC[C@H]1C(=O)N1CCC[C@H]1C(=O)N1CCC[C@H]1C(=O)N[C@@H](CO)C(N)=O,,"human, mild hepatic impairment","subcutaneous, 5 mg",,tmax,24 h
O=c1[nH]c(=O)[nH]c(=O)[nH]1,LC-MS/MS,"non-pregnant female rat, serum","oral, 1000 mg/kg/day, 10 days",,serum concentration,3500 ng/mL and 5400 ng/mL and 2300 ng/mL and 11600 ng/mL and 5200 ng/mL
CSCC[C@@H]1NC(=O)[C@H](CC(=O)O)NC(=O)CNC(=O)[C@H](CCCNC(=N)N)NC(=O)[C@H](C)NC(=O)[C@H](CCC(=O)O)NC(=O)[C@H](CCCNC(=N)N)NC(=O)[C@@H]2CSSC[C@@H]3NC(=O)[C@H](CO)NC(=O)[C@H]([C@@H](C)O)NC(=O)[C@@H]4CCCN4C(=O)[C@H](C)NC(=O)[C@H](Cc4c[nH]c5ccccc45)NC(=O)[C@H](CC(=O)O)NC(=O)CNC(=O)[C@H](CCCNC(=N)N)NC(=O)CNC(=O)[C@H](CCC(N)=O)NC(=O)[C@@H]4CCCN4C(=O)[C@@H](NC(=O)CNC(=O)C(C)F)CSSC[C@H](NC(=O)CNC(=O)[C@H](C)NC(=O)[C@H](CC(C)C)NC(=O)[C@H](CSSC[C@@H](C(=O)NCC(N)=O)NC(=O)[C@H]([C@@H](C)O)NC(=O)[C@H](CCCNC(=N)N)NC(=O)[C@@H]4CCCN4C1=O)NC(=O)[C@H](CC(=O)O)NC(=O)[C@H](CO)NC(=O)[C@H](CC(=O)O)NC(=O)[C@H](CCC(N)=O)NC(=O)[C@H](CO)NC3=O)C(=O)N[C@@H](C(C)C)C(=O)N2 (stereo partly drawn) [fluorine-18 labelled],radio-HPLC,mouse serum,"1 h, 37 °C",,intact fraction,> 95%
CC(=O)N[C@H](CCCCNC(=O)C(C)F)C(=O)N[C@@H](CS)C(=O)N[C@@H](CS)C(=O)N[C@@H](CCC(=O)O)C(=O)N[C@@H](Cc1c[nH]cn1)C(=O)N[C@H](Cc1ccccc1)C(=O)N[C@@H](CCCNC(=N)N)C(=O)N[C@@H](Cc1c[nH]c2ccccc12)C(=O)N[C@@H](CS)C(=O)N[C@@H](CCCNC(=N)N)C(=O)N1CCC[C@H]1C(=O)N[C@H](C(N)=O)C(C)C (stereo partly drawn) [fluorine-18 labelled],,"C57BL/6 mice, male, B16-F10 tumour, intestine","intravenous, 2 h",,tissue uptake,1.14 ± 0.8 %ID/g
CSCC[C@H](NC(=O)[C@@H](NC(=O)[C@H](CO)NC(=O)CNC(=O)[C@H](C)NC(=O)[C@H](C)NC(=O)CNC(=O)[C@H](CC(C)C)NC(=O)[C@H](Cc1ccccc1)NC(=O)CNC(=O)[C@H](CC(C)C)NC(=O)[C@H](Cc1ccccc1)NC(=O)[C@H](CC(C)C)NC(=O)[C@H](C)NC(=O)CNC(=O)c1ccc2c(c1)C(=O)OC21c2ccc(O)cc2Oc2cc(O)ccc21)[C@@H](C)O)C(=O)NCC(=O)N[C@@H](C)C(=O)N[C@@H](Cc1c[nH]c2ccccc12)C(=O)N[C@@H](CO)C(=O)N[C@@H](CCC(N)=O)C(=O)N1CCC[C@H]1C(=O)N[C@@H](CCCCN)C(=O)N[C@@H](CCCCN)C(=O)N[C@@H](CCCCN)C(=O)N[C@@H](CCCNC(=N)N)C(=O)N[C@@H](CCCCN)C(=O)N[C@H](C(=O)O)C(C)C,no effect,"Sprague-Dawley rat, excised skin","50 µmol/L, 37 °C, FAM-labelled CPP conjugate",relative to: free FAM,apparent skin permeability,no effect
O=C(c1ccc(F)c(F)c1Nc1ccc(I)cc1F)N1CC(O)([C@@H]2CCCCN2)C1,refers to: retinal detachment,human patients,"oral, dose not given, dose escalation, tablet, grade G2",,treatment-related adverse events,6%
CC(C)C[C@@H]1NC(=O)[C@@H](NC(=O)CN)CSSC[C@@H]2NC(=O)[C@@H]3CSSC[C@@H](C(=O)N[C@@H](CC(N)=O)C(=O)N[C@@H](Cc4ccccc4)C(=O)N[C@@H](CO)C(=O)N[C@@H](Cc4ccccc4)C(N)=O)NC(=O)[C@H](CC(C)C)NC(=O)[C@H](CCCCN)NC(=O)[C@H](Cc4ccccc4)NC(=O)[C@H](CC(C)C)NC(=O)[C@H](CCCCN)NC(=O)[C@H](CO)NC(=O)[C@H](CSSC[C@H](NC(=O)[C@H](CCCCN)NC(=O)[C@H](Cc4c[nH]c5ccccc45)NC(=O)[C@H](Cc4c[nH]c5ccccc45)NC(=O)[C@H](Cc4ccccc4)NC(=O)[C@H](CCC(=O)O)NC1=O)C(=O)N[C@@H](CC(N)=O)C(=O)N1CCC[C@H]1C(=O)N[C@@H](CC(N)=O)C(=O)N[C@@H](CC(=O)O)C(=O)N[C@@H](CC(=O)O)C(=O)N[C@@H](CCCCN)C(=O)N3)NC(=O)[C@H](CCCCN)NC(=O)[C@H](CC(C)C)NC(=O)[C@H](CCCCN)NC(=O)[C@@H]1CCCN1C(=O)[C@H](CCCNC(=N)N)NC2=O,"ultrafiltration, HPLC",saline without serum,"50 µM, 10 min",,free fraction,30%
CN[C@@](C)(C[18F])C(=O)O,,"SCID mouse U87 xenograft, lung","120 min, post injection",,tissue uptake,1.9 ± 0.3 %ID/g
CC1(C)S[C@@H]2[C@H](NC(=O)[C@@H](C(=O)O)c3ccsc3)C(=O)N2[C@H]1C(=O)O,,rat plasma,"2400 ng/mL, three freeze-thaw cycles",relative to: nominal concentration,relative error,-2.3%
Oc1ccc2ccc3cccc4ccc1c2c34,HPLC-fluorescence,"Wistar rat, male, testes","oral, 4 mg/kg PY, 24 h",,tissue concentration,88 ± 36 ng/g
O[C@H]1CCCN[C@@H]1CCCn1cnc2c(Cl)c(Cl)ccc21,,"human, plasma","oral, 600 mg, single dose, healthy volunteers",,Vd/F,4460 L

# For quick reference, copied from above:
Structure (SMILES),test,test system,setting,scale,measurement,result
O[C@H]1CCCN[C@@H]1CCCn1cnc2c(Cl)c(Cl)ccc21,,"human, plasma","oral, 600 mg, single dose, healthy volunteers",,Vd/F,4460 L
